Measured values pooled from the literature.
Every numbered part comes from another study and shows a few of its results, in no order. Substitutions count along the parent as printed.

Set 1
Target: Transcription factor SOX-2, HMG box (Sox2, Mus musculus, UniProt P48432, residues 41-119)
Sequence of UniProt P48432 (41-119, looked up): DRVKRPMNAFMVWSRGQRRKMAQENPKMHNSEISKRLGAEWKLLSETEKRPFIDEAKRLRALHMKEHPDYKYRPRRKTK
Technique: Spec-seq
Form: double-stranded DNA, one strand shown
Matrix: in vitro
Concentration: not given
Notes: whole probe, mean of replicates
Baseline: not given
Reading: lower = stronger binding
All sequences stand within: GAGTCGTCTCGTCAGCAC … CCGTAGAGCACTCAGGTC
Strand | relative binding energy [ln ratio]
ACCAGTT | 0.17
CATCTGG | 0.739
CATAATC | -0.423
CCAGGTT | 1.25
ATACGTT | 0.467
GGGGGTT | 1.71
ATGGGTT | 0.856
ACTAGTT | -0.438
CATGCAA | 0
TCGGGTT | 1.42
TCAGGTT | 0.879
CATTTCC | 0.589
CATCGAC | 0.714
TGAAGTT | 0.578
ATCGGTT | 0.788
CATGTCA | 0.519
GACTGTT | 0.0709
TATCGTT | -0.0417

Set 2
Target: ABI1, truncated, D143A, DHFR fusion (Arabidopsis thaliana)
Technique: DHFR PCA, deep sequencing
Matrix: yeast
Notes: methotrexate growth selection, single substitutions
With: (+)-ABA 200 µM
Baseline: wild-type fitted maximum
Reading: higher = stronger binding
Parent: PYL1, truncated, DHFR fusion (Arabidopsis thaliana); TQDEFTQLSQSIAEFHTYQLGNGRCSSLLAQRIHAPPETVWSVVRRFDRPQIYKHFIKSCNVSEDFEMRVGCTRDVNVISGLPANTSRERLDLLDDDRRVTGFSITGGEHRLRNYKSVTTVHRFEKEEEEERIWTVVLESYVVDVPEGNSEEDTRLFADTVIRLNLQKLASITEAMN; partner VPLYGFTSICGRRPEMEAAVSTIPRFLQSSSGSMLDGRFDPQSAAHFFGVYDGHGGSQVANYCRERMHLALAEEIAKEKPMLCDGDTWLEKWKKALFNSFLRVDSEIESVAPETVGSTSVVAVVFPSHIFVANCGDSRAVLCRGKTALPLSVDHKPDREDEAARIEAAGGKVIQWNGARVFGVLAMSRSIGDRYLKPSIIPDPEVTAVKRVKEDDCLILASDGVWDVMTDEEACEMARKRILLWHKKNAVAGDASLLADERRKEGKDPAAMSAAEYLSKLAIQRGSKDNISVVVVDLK
Change | relative binding score [%]
A13Y | 87.6
L138I | 83.5
Q51C | 105
D65H | 104
L20H | 98
E128H | 103
P50Q | -0.531
K58I | 61.4
V44E | 2.49
V62A | 80.6
L82K | 3.37
E125D | 99.7
E109F | 66.5
P37S | 81.5
E127H | 100

Set 3
Target: CCND2, cyclin fold, Cln2 fusion (human)
Technique: yeast growth competition, sequencing
Matrix: yeast
Notes: weak parent motif
Baseline: not given
Reading: higher = stronger binding
Parent: PKN2 docking peptide (human); VSAVQKLDFSDTM
Change | normalised enrichment score
M13T | 0.706
L7V | 0.143
D11Y | 0.302
S10Q | 0.061
V4L | 0.492
Q5A L7A | -0.015
V4Y | 0.407
S2C | 0.543
M13Y | 0.935
D11R | 0.449
L7P | -0.0951
T12Q | 0.569
F9Y | 0.264

Set 4
Target: TAR DNA-binding protein 43, full length, His tag (TARDBP, Homo sapiens, UniProt Q13148, residues 1-414)
Technique: RNA Bind-n-Seq
Form: RNA
Matrix: in vitro
Concentration: 20 nM
Notes: 6-mer, flanks averaged, single round
With: 150 mM KCl
Baseline: input library
Reading: higher = stronger binding
Strand | 6-mer enrichment (R)
AUGGAU | 0.829
AAAUUU | 0.656
GUACUC | 0.615
UCGGUC | 0.706
CUGUCA | 0.606
GGCGGU | 3.15
CCGCUU | 0.613
AACUGA | 0.641
AUUAGA | 0.638
GGCGAC | 1.66
GAUGAG | 1.64
UUCACC | 0.599
GGAGAU | 1.48
ACUAUG | 0.665
CAGCUU | 0.615
CUGGCA | 0.832

Set 5
Target: Centromere-binding protein 1, full length, His-tagged (CBF1, Saccharomyces cerevisiae, UniProt P17106, residues 1-351)
Sequence of UniProt P17106 (whole entry, looked up): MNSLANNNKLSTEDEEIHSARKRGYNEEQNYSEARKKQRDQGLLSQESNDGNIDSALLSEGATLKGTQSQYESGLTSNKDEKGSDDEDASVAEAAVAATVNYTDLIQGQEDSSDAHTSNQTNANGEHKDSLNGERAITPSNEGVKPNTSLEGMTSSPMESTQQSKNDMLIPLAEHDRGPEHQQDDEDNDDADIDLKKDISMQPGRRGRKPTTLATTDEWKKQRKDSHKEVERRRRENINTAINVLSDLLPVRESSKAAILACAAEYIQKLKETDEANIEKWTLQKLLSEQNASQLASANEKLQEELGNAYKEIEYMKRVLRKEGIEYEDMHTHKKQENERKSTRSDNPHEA
Technique: competition protein-binding microarray
Form: double-stranded DNA, one strand shown
Matrix: in vitro
Concentration: 2 µM
Notes: whole 60-bp probe, lowest competitor level
With: Pho4 competitor, 0.05 µM
Reading: higher = stronger binding
All sequences stand within: … GTCTTGATTCGCTTGACGCTGCTG
Strand | fluorescence intensity
GTACATGTCCGCCATCACGTGGTGAAGATGTAGTAT | 2350 a.u.
TAGGTAGCAAATATTGGCGTGATTGCGGAGCCTTCC | 67.5 a.u.
ACACAAAATTGTGGAACCGTGACAAGCAATGGCTGA | 131 a.u.
CTTCTGTAAATTTGCGCTGTGGGTGGACGCGCCCCG | 74.6 a.u.
GTCTTGTCTCATTTTCACGTGAGATTCCCCACTTCA | 689 a.u.
CTTTCCCGATCTTGTCGAGTGGGTGTAGCACATTTG | 59.1 a.u.
CTTCTGTAAATTTGGCCTGTGGGTGGACGCGCCCCG | 74.1 a.u.
TTTTACATGAAACTGCGCGTGCCAGAAATGTTAAGA | 126 a.u.
TACAAATTGGTCCGTCACGTTTCTTTTGTTGACTGT | 591 a.u.
AGAGCATAGGTTTGACCCGTGATTGTGCCGACGTCA | 183 a.u.
GTCTTGTCTCATTGAGTCGTGGGTGTCCCCACTTCA | 70.7 a.u.
CTTTCCCGATCTTGACTAGTGGGTGTAGCACATTTG | 62.7 a.u.
TCTCGAATAGACGGCCACGTGATGGCTAACATTAAT | 3900 a.u.
AATTGGGGTGCGAGTCACGTGCAAAACGACGGTAGT | 5900 a.u.
AAATACAAAGACAAGCATGTGCTTTCGGCAAAAGTG | 174 a.u.
GCTGCGGCATCATTGATCATGCCATTTTTGGACAAT | 80.7 a.u.
GTCTTGTCTCATTGGGCAGTGGGTGTCCCCACTTCA | 78 a.u.
TTAACATAATTAAAGCACGCAGCGATTGGGTATAAT | 77 a.u.

Set 6
Target: RING finger protein unkempt homolog, zinc fingers 1-6, GST-SBP tag (UNK, Homo sapiens, UniProt Q9C0B0, residues 30-357)
Technique: RNA Bind-n-Seq
Form: RNA
Matrix: in vitro
Concentration: not given
Notes: RNA with constant flanks, human-mouse chimeric sites, ends assumed
Baseline: input RNA pool
Reading: higher = stronger binding
All sequences stand within: GGGAGUUCUACAGUCCGACGAUC … CAACAGAGGAUUGAGCAUCA
Residues (chain): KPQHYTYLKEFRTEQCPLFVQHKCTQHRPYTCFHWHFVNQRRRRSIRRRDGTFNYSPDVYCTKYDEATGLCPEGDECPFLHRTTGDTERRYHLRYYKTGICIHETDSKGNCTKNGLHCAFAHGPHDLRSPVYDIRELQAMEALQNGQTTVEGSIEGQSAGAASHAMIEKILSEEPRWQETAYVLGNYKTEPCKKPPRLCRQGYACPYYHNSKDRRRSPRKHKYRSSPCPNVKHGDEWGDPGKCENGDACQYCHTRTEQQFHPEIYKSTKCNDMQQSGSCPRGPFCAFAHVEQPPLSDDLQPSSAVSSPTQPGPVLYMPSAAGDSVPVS
Strand | bound/input enrichment
GAAACAUUUAAAUUUAAAGAAGCUGUUGUUUUAGGGAGUACGGACUUUCUAGAAGAUGAUAUAGAGAAAAUUGUAGAAGAACUGGGGAAAGAGUAUAAAGGCAAUGCCUACCAUCUGAUG | 2.84 ratio
CUGGCACUGUAUCAGAUAUAUUAAUUUUUUAAUGUAGAUGUAAUUUUAAAAAUGAAUGGCUACUUUACACGUUUAACUAGGGUUUUACUAUAUAUGUGUACAUAUGUAUAUAUAUAUAUA | 3.88 ratio
AUCAAAUACUUUGGGGACAUCAUUAGUGUGGGACAGAGACUGUUGCAAGGAGCUCGGAUCUUAGGGAUUCCAGUUAUCAUAACGGAACAAUACCCUAAAGGACUUGGGAGCACGGUUCAA | 0.243 ratio
GUGUCCUGCUUUCAACUAUCACUGAGGAGGCAUCUCUACUGUUCUGUGAGCAUCAGGACUGUAGCGCUGUGUCACCACAUGAGAGUUCAGAAGCAGCCUUUCUGUGGAGGGUGGGAAUGA | 0.125 ratio
GUGCCCUUCUCGCUGCUCCUGCGGGGCAGCUGGGAACCAUUCCGGGACUGGUACCCUCCGCAUAGCCGCCUCUUCGAUCAAGCUUUCGGGGUGCCCCGGUUGCCCGAUGAGUGGUCGCAG | 0.055 ratio
CACUCGAGGGCUGCCGUUUUCUGUUUCUCCCUGGGCUGCGGAAAGCCAGAAGAUUUUAUCUAGCUUAUACAAGGCUGCUGGUGUUCCCUCUUUUUUUCCACGAGGGUGUUUUUGGCUGCA | 0.388 ratio
CACGUGUCUGCAGUACUUGAUGUGGAUUACUCUCCCACUGGGAAGGAGUUUGUGUCUGCCAGCUUUGAUAAGUCUAUUAGAAUCUUUCCUGUGGACAAGAGCCGAAGCAGGGAAGUGUAU | 0.188 ratio
UAAGUUAUUUUGUACAGUAAGUUAUUUUCUUAACAUUUUUAUAUUGCACAUUUUAUGUUGUUUGGGUAAUUUGGUUCAUUAAGUACAUAGCUAAGGUAAUGAACAUCUUUUUCAGUAAUU | 1.92 ratio
AUGGAACAUUUCGAUGCGUCACUCAGUACCUAUUUCAAGGCCUUCCUGGGCCCCCGAGAUACAAGAGUCAAAGGAUGGUUCCUCCUGGACAAUUACAUACCCACAUUUGUCUGUUCUGUU | 0.0842 ratio
UACUCAACUUUCUUGCCACGUUUUGAAUUCCAAGACAUUAUUCCUCCAGAUGACUUCCUAACGAGUGAUGAAGAGCAAGAUUUGGUUUUAUUUGGAAGUUUGAGAGGACAAGUUGUUGGA | 0.188 ratio
CUGGCCUGGCCCUCCCCUCUAGUGACCUUUCGUAUAGUCACUGCUUCUGCAUCAGAUACUUUCAGCUGCAACUCCCUACUGGGUGGGGCACCUAUCUCAGGCAGAAGGUUUUGGUACCCU | 0.21 ratio

Some of these lines once more (set 4):
Strand | 6-mer enrichment (R)
GGCGGU | 3.15
AUUAGA | 0.638
GUACUC | 0.615
AUGGAU | 0.829
CUGGCA | 0.832
ACUAUG | 0.665
CUGUCA | 0.606
AACUGA | 0.641
GGAGAU | 1.48
